Measurements of several laboratories.
Protocols differ between the studies behind these lines. Values joined by “and” are separate records of one study, mostly repeats; a detail may differ. ± gives the spread as reported.
SLCO1B3: Solute carrier organic anion transporter family member 1B3 (SLCO1B3, Homo sapiens, UniProt Q9NPD5)
Chain of UniProt Q9NPD5 (whole entry, looked up): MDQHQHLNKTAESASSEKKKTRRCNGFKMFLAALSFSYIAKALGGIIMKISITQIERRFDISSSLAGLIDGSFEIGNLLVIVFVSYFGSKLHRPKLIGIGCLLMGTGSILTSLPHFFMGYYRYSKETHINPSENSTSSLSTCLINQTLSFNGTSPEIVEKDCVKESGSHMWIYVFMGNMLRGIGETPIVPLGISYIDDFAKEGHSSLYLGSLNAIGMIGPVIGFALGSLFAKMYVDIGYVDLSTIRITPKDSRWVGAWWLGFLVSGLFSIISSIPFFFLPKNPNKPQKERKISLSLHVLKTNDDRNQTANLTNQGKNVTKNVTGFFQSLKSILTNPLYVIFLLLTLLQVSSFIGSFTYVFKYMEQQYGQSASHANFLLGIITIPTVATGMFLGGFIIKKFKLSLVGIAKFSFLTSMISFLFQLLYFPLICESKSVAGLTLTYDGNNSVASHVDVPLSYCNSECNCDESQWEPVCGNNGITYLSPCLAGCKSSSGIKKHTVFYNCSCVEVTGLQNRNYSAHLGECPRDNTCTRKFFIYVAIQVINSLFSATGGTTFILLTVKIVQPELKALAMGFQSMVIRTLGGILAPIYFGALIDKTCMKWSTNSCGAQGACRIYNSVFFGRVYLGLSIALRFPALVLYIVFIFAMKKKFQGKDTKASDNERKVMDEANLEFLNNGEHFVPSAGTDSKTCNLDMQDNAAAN
Chain of UniProt P08684 (whole entry, looked up): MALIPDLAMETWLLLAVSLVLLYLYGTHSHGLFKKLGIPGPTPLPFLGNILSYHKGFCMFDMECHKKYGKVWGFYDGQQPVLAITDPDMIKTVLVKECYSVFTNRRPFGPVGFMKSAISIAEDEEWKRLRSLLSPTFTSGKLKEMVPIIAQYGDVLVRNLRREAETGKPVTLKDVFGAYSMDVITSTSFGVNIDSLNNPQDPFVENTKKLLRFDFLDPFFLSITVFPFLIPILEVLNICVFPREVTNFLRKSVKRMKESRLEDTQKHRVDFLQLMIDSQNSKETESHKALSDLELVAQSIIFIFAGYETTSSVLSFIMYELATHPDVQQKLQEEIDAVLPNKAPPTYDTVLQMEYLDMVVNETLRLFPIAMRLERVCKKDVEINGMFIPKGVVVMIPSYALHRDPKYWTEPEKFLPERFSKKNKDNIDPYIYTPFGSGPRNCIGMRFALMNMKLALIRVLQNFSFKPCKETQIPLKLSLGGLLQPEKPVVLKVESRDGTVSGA
Chain of UniProt Q9UNQ0 (whole entry, looked up): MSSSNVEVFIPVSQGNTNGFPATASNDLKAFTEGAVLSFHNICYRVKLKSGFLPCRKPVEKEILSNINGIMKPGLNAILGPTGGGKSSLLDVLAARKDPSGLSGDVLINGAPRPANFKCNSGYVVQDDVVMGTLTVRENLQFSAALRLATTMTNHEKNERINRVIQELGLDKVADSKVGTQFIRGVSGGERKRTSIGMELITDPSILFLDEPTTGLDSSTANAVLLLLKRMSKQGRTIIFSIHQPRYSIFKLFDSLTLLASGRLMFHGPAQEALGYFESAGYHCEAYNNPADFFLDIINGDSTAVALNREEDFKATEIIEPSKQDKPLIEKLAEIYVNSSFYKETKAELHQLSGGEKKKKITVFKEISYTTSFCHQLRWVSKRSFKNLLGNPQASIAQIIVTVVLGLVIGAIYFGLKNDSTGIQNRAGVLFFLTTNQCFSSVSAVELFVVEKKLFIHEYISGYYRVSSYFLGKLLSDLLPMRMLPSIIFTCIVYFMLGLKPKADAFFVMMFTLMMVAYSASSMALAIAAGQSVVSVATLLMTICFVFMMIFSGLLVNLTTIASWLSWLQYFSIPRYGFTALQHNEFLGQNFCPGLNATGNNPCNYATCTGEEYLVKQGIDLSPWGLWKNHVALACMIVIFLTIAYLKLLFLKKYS
Chain of UniProt Q96NY8 (whole entry, looked up): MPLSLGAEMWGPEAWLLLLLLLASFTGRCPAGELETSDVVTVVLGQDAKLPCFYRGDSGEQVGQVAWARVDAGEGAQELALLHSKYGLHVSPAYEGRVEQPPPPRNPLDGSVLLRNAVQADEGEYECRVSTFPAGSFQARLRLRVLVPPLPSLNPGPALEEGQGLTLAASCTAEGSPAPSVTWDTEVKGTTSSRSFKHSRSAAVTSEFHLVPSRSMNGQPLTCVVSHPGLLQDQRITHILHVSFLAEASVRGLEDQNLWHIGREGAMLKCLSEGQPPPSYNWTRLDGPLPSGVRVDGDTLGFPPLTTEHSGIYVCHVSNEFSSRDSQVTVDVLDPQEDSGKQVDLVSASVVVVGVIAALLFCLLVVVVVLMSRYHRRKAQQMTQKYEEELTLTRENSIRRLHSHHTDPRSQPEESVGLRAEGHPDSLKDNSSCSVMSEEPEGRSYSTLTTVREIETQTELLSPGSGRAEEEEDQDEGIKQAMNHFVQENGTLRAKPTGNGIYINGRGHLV
Chain of UniProt Q07011 (whole entry, looked up): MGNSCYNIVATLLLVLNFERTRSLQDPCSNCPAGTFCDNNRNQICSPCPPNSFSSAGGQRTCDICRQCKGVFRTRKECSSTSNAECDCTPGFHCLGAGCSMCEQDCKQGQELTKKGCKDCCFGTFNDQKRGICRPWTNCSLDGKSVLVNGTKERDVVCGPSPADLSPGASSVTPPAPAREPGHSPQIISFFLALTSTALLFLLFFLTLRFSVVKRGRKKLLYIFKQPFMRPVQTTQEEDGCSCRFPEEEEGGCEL

O=C1NC2(CC2)COc2ncc(F)cc2[C@H]2COCCN2c2ccn3ncc1c3n2  organ-to-brain weight ratio (Sprague-Dawley rat, male, adrenals; oral, 20 mg/kg/day, 4 weeks, end of treatment): 2.93 ± 0.22%
CC(C)=CCC/C(C)=C\CCn1cc(CC(C)(P(=O)(O)O)P(=O)(O)O)nn1  cellular uptake (SLCO1B3; OATP1B3-transfected cells; 50 µM, 5 min, pH 7.4; reference: mock-transfected cells): 1.5 fold
Cc1ccc(OCCN(C)C)cc1C(=O)N[C@H](C)c1cc(-c2cncs2)nc2ccccc12  viability (Vero E6; 7.812 µM): 98.3% and 116%
CCCCCn1ccc(C(=O)NC(C)(C)c2ccc(CNC(C)=O)cc2)n1  CYP induction (CYP1A2 human; RT-qPCR, item: CYP1A2 mRNA; HepaRG; concentration not given; reference: positive control): < 10%
CC[C@H](C)[C@@H]1NC(=O)[C@H](CC(C)C)NC(=O)[C@@H](NC(=O)[C@H](CCC(N)=O)NC(=O)[C@H](CCCCN)NC(=O)[C@H](CC(N)=O)NC(=O)[C@H](Cc2ccc(O)cc2)NC(=O)[C@@H]2CCC(=O)NCC(=O)NCC(=O)NCC(=O)NCC(=O)N[C@@H](CCCNC(=N)N)C(=O)NCC(=O)N[C@@H](Cc3ccc(O)cc3)C(=O)N2)CSSC[C@@H](C(=O)O)NC(=O)[C@H](Cc2ccccc2)NC1=O  proteolytic stability (carboxypeptidase B; substrate, LC-MS; 20 h, room temperature): stable
Cc1cc(-c2ccc3ccccc3c2)nnc1NCCN1CCN(C)CC1  inhibition (SLCO1B3; transporter uptake, inhibitor; 10 µM): 18%
CSc1nc2[nH]nc([N+](=O)[O-])c(=O)n2n1  inhibition (SLCO1B3; transport, inhibitor; transiently transfected cells; 100 µM, 10 (unit not given), added: CCK-8): 22%
CCCC[C@@H]1NC(=O)[C@H](Cc2ccc(O)cc2)NC(=O)[C@@H]2CCCN2C(=O)[C@H](CC(=O)O)NC(=O)[C@H](C)NC(=O)[C@H](Cc2ccccc2)NC(=O)[C@@H]2CSCCC(=O)N3CN(CN(C3)C(=O)CCSC[C@@H](C(=O)N[C@@H](CNC(=O)CCOCCOCCOCCN(CCOCCOCCOCCn3cc(CCC(=O)NCCC(=O)N[C@H]4CSCCC(=O)N5CN6CN(C5)C(=O)CCSC[C@H](NC(=O)[C@@H](CC(=O)O)NC(=O)[C@H](Cc5cccc7ccccc57)NC(=O)[C@@H]5CCCN5C4=O)C(=O)N[C@@H](CCSC)C(=O)N[C@@H](CCCCNC(=N)N)C(=O)N[C@@H](CC(=O)O)C(=O)N[C@@H](Cc4c[nH]c5ccccc45)C(=O)N[C@@H](CO)C(=O)N[C@@H]([C@@H](C)O)C(=O)N4CCC[C@H]4C(=O)N4C[C@H](O)C[C@H]4C(=O)N[C@@H](Cc4c[nH]c5ccccc45)C(=O)N[C@H](C(N)=O)CSCCC6=O)nn3)CCOCCOCCOCCn3cc(CCC(=O)NCCC(=O)N[C@H]4CSCCC(=O)N5CN6CN(C5)C(=O)CCSC[C@H](NC(=O)[C@@H](CC(=O)O)NC(=O)[C@H](Cc5cccc7ccccc57)NC(=O)[C@@H]5CCCN5C4=O)C(=O)N[C@@H](CCSC)C(=O)N[C@@H](CCCCNC(=N)N)C(=O)N[C@@H](CC(=O)O)C(=O)N[C@@H](Cc4c[nH]c5ccccc45)C(=O)N[C@@H](CO)C(=O)N[C@@H]([C@@H](C)O)C(=O)N4CCC[C@H]4C(=O)N4C[C@H](O)C[C@H]4C(=O)N[C@@H](Cc4c[nH]c5ccccc45)C(=O)N[C@H](C(N)=O)CSCCC6=O)nn3)C(N)=O)NC1=O)C(=O)CCSC[C@H](NC(C)=O)C(=O)N[C@@H](CC(C)(C)C)C(=O)N1CCC[C@H]1C(=O)N[C@@H](CCC(=O)O)C(=O)N[C@H](C)C(=O)N1CCC[C@H]1C(=O)N[C@@H](Cc1ccc(O)cc1)C(=O)N2  Emax (Tumor necrosis factor receptor superfamily member 9/Nectin-4 (Homo sapiens, UniProt Q07011+Q96NY8); reporter gene, agonist, luciferase reporter; CD137 Jurkat reporter with HT-1376; 6 h, geometric mean; reference: wells without compound): 21 fold
CNC(=O)C1CCCN(C(=O)C2CC3CCC2N3C(=O)[C@@H]2C[C@@H](O)CN2C(=O)NCc2cccc(Cl)c2F)C1 (mixture of isomers)  1-hydroxymidazolam formed (human CYP3A4; time-dependent inhibition; 5.56 µM, preincubation without NADPH, added: midazolam): 1160 ng/mL
O=C(CN1C(=O)C2(CCN(C(=O)c3ccc4[nH]ncc4c3)CC2)c2c(Br)cccc21)NCC(F)(F)F  IC50 (Cytochrome P450 3A4 (CYP3A4, Homo sapiens, UniProt P08684); enzyme activity, inhibitor): 13 µM
CC[C@H](C)[C@@H]1NC(=O)[C@H]([C@@H](C)O)NC(=O)CNC(=O)[C@H](CCCNC(=N)N)NC(=O)[C@H](CC(C)C)NC(=O)[C@@H]2CSSC[C@H](NC1=O)C(=O)N[C@H](C(=O)N[C@@H](CO)C(=O)NCC(N)=O)CSSC[C@H](NC(=O)[C@H](C)N)C(=O)N[C@@H](C)C(=O)N[C@@H](Cc1c[nH]c3ccccc13)C(=O)N2  cleavage (Chymotrypsinogen A, activated (alpha-chymotrypsin) (Bos taurus, UniProt P00766); substrate, RP-HPLC/ESI-MS; 30 µM, 32 h, pH 7.4, 37 °C, PBS, ratio 1:1000, added: bovine α-chymotrypsin 30 nM): ~10%
CC[C@H](C)[C@@H]1NC(=O)[C@H](CO)NC(=O)[C@H](CCCCN)NC(=O)[C@@H]2CSSC[C@@H](C(=O)N[C@@H](Cc3ccc(O)cc3)C(N)=O)NC(=O)[C@H](CCCCN)NC(=O)[C@@H]3CSSC[C@H](NC(=O)[C@H](CCCNC(=N)N)NC(=O)[C@H](CC(C)C)NC(=O)[C@H](CC(=O)O)NC(=O)[C@H](CC(=O)O)NC(=O)[C@H](CCC(=O)O)NC(=O)[C@H](CC(N)=O)NC(=O)[C@H](Cc4c[nH]c5ccccc45)NC(=O)[C@@H]4CCCN4C(=O)CNC(=O)[C@H](CC(N)=O)NC(=O)[C@@H](NC(=O)CNC(=O)[C@H](Cc4ccccc4)NC(=O)CN)CSSC[C@H](NC(=O)[C@H](Cc4ccc(O)cc4)NC(=O)CNC(=O)CNC(=O)[C@H](CCCCN)NC(=O)[C@H](Cc4ccc(O)cc4)NC(=O)CNC(=O)[C@H](CCCCN)NC1=O)C(=O)N[C@@H](C)C(=O)N[C@@H](CCCCN)C(=O)NCC(=O)NCC(=O)N[C@@H](Cc1ccccc1)C(=O)N[C@@H](C(C)C)C(=O)N3)C(=O)N[C@@H](Cc1c[nH]cn1)C(=O)N[C@@H](CC(N)=O)C(=O)N[C@@H](Cc1c[nH]cn1)C(=O)N2  half-life (trypsin; peptide degradation, HPLC; NH4HCO3 CaCl2 buffer; 13.2 µM, pH 8.5, room temperature, added: trypsin 36 µM): 3 min
CCCCCCCCCCCC(=O)C(C)C(=O)N1CCC[C@H]1C(=O)NC(C)(C)C(=O)NC(C)(C)C(=O)NC(C)(C)C(=O)N[C@](C)(CC)C(=O)NCCC(=O)N[C@@H](C)C(=O)N[C@](C)(CC)C(=O)N[C@@H](C)C(=O)N[C@@H](CC(C)C)C(=O)N[C@](C)(CC)C(=O)NCCC(=O)N[C@@H](C)C(=O)N[C@](C)(CC)C(=O)NCCC(=O)N[C@@H](C)C(=O)NC(C)(C)C(=O)NC(C)(C)C(=O)NC(C)(C)C(=O)N[C@@H](C)C(=O)N[C@@H](CC(=O)O)C(=O)O (stereo partly shown)  remaining intact peptide (trypsin; LC-MS; 40 µM, 120 min, pH 7.5, 37 °C; reference: 0 h): 70.1%
CCN(CC)CCOc1ccc(-c2nnn(Cc3ccc(OC)cc3)c2N)cc1  IC50 (Solute carrier family 22 member 2 (SLC22A2, Homo sapiens, UniProt O15244); transporter uptake, inhibitor): 0.66 µM
CC(=O)NCCCC[C@@H]1NC(=O)[C@H](Cc2c[nH]c3c(C)cccc23)NC(=O)[C@H]([C@@H](C)O)NC(=O)[C@H](CC(N)=O)NC(=O)[C@@H](NC(C)=O)C(C)(C)SSC(C)(C)[C@@H](C(=O)N[C@@H](Cc2ccc(OCCN)cc2)C(=O)N[C@@H](Cc2ccc3ccccc3c2)C(=O)NC2(C(=O)N[C@@H](CCC(=O)O)C(=O)N[C@@H](CC(N)=O)C(=O)N[C@@H](Cc3cccnc3)C(=O)N(C)CC(N)=O)CCOCC2)NC1=O  efflux ratio (Broad substrate specificity ATP-binding cassette transporter ABCG2 (ABCG2, Homo sapiens, UniProt Q9UNQ0); transport, inhibitor; LLC-PK1 expressing ABCG2; 2.04 µM, 90 min, added: [3H]prazosin): 10.9
O=C(O)c1ccc(-c2nc(-c3ccccc3Cl)c3sccn23)cc1  specific binding (Cav1.2 calcium channel; radioligand binding; 10 µM; reference: control): 104%
CC(C)C[C@H](NC(=O)[C@H](CC(C)C)NC(=O)[C@H](CCCCN)NC(=O)[C@H](Cc1ccccc1)NC(=O)[C@@H](NC(=O)[C@H](CCCNC(=N)N)NC(=O)[C@@H](N)CCCCN)C(C)C)C(=O)N[C@@H](CCCCN)C(=O)N[C@@H](CCCNC(=N)N)C(=O)N[C@@H](Cc1ccc(O)cc1)C(=O)N[C@@H](Cc1c[nH]c2ccccc12)C(=O)N[C@@H](CCCNC(=N)N)C(=O)N[C@@H](CCC(N)=O)C(=O)N[C@@H](CC(C)C)C(=O)N[C@@H](CCCCN)C(=O)N[C@@H](CCCCN)C(=O)N1CCC[C@H]1C(=O)N[C@H](C(=O)N[C@@H](CCCNC(=N)N)C(=O)NCCOCCOCC(=O)O)C(C)C  remaining intact peptide (trypsin; enzymatic degradation, HPLC; 2 h, 37 °C, peptide:enzyme 50:1): ~50%
Cc1ccc(N2CC3CCC(C2)N3C)cc1C(=O)N[C@H](C)c1cc(-c2cnn(C)c2)nc2ccccc12  viability (African green monkey cells; 31.25 µM): 53.3%
CC[C@H](C)[C@H](NC(=O)[C@H](CCC(N)=O)NC(=O)[C@H](CO)NC(=O)[C@H](NC(=O)[C@@H](NC(=O)CN)C(C)C)[C@@H](C)CC)C(=O)N[C@@H](CCCNC(=N)N)C(=O)N1CCC[C@H]1C(N)=O  time to full degradation (Thermolysin (npr, Bacillus thermoproteolyticus, UniProt P00800); substrate, HPLC; 0.1 µM, 37 °C): 100 min

For quick reference, copied from above:
CC[C@H](C)[C@@H]1NC(=O)[C@H](CO)NC(=O)[C@H](CCCCN)NC(=O)[C@@H]2CSSC[C@@H](C(=O)N[C@@H](Cc3ccc(O)cc3)C(N)=O)NC(=O)[C@H](CCCCN)NC(=O)[C@@H]3CSSC[C@H](NC(=O)[C@H](CCCNC(=N)N)NC(=O)[C@H](CC(C)C)NC(=O)[C@H](CC(=O)O)NC(=O)[C@H](CC(=O)O)NC(=O)[C@H](CCC(=O)O)NC(=O)[C@H](CC(N)=O)NC(=O)[C@H](Cc4c[nH]c5ccccc45)NC(=O)[C@@H]4CCCN4C(=O)CNC(=O)[C@H](CC(N)=O)NC(=O)[C@@H](NC(=O)CNC(=O)[C@H](Cc4ccccc4)NC(=O)CN)CSSC[C@H](NC(=O)[C@H](Cc4ccc(O)cc4)NC(=O)CNC(=O)CNC(=O)[C@H](CCCCN)NC(=O)[C@H](Cc4ccc(O)cc4)NC(=O)CNC(=O)[C@H](CCCCN)NC1=O)C(=O)N[C@@H](C)C(=O)N[C@@H](CCCCN)C(=O)NCC(=O)NCC(=O)N[C@@H](Cc1ccccc1)C(=O)N[C@@H](C(C)C)C(=O)N3)C(=O)N[C@@H](Cc1c[nH]cn1)C(=O)N[C@@H](CC(N)=O)C(=O)N[C@@H](Cc1c[nH]cn1)C(=O)N2  half-life (trypsin; peptide degradation, HPLC; NH4HCO3 CaCl2 buffer; 13.2 µM, pH 8.5, room temperature, added: trypsin 36 µM): 3 min
CCCCCCCCCCCC(=O)C(C)C(=O)N1CCC[C@H]1C(=O)NC(C)(C)C(=O)NC(C)(C)C(=O)NC(C)(C)C(=O)N[C@](C)(CC)C(=O)NCCC(=O)N[C@@H](C)C(=O)N[C@](C)(CC)C(=O)N[C@@H](C)C(=O)N[C@@H](CC(C)C)C(=O)N[C@](C)(CC)C(=O)NCCC(=O)N[C@@H](C)C(=O)N[C@](C)(CC)C(=O)NCCC(=O)N[C@@H](C)C(=O)NC(C)(C)C(=O)NC(C)(C)C(=O)NC(C)(C)C(=O)N[C@@H](C)C(=O)N[C@@H](CC(=O)O)C(=O)O (stereo partly shown)  remaining intact peptide (trypsin; LC-MS; 40 µM, 120 min, pH 7.5, 37 °C; reference: 0 h): 70.1%
